# Experimental data from different studies.
# ± gives the spread as reported.
# Organism: Plasmodium falciparum
SMILES,assay,system,conditions,IC50 [nM]
COC(=O)C1=CO[C@@H](C)[C@@H]2Cn3ccc4c5ccccc5nc-4c3C[C@H]12,growth,3D7,72 h,178 ± 78
COc1cccc2c(-c3ccc(O)c4c3CCNC4)ccc(O)c12,"asexual parasite proliferation, SYBR Green I fluorescence",K1,,359 ± 81
O[C@@H](CNCCNC(c1ccccc1)c1ccccc1)c1cc(Cl)cc2c1-c1ccc(Cl)cc1C2,,3D7,48 h,10.9 ± 1.1
COc1cncc(-c2cc(F)cc(CNC(=O)c3cc(N4CC[C@@](C#N)(C5CC5)C4=O)cc(C)n3)c2)c1,parasite growth,conditional knockdown control line,"72 h, together with: 3 nM anhydrotetracycline",252
COCCN(C)CC(=O)NC(Cc1ccc(-c2ccccc2)cc1)B(O)O (stereo not drawn),[3H]-hypoxanthine incorporation,3D7,48 h,98
COc1cc2c(c(OC)c1)C(C)=[N+](c1ccc(OC)c3c(OC)cc(C)cc13)[C@@H](C)C2,"asexual parasite proliferation, SYBR Green I fluorescence",Dd2,,438 ± 46
COc1ccc(CCNC2=CC3=[N+](C)CCc4c[nH]c(c43)C2=O)cc1,"parasite growth, SYBR Green",W2,blood stage,99.3
O=C(OCc1cn(-c2cc3ccc(O)cc3oc2=O)nn1)c1ccccc1,parasite growth,3D7,"72 h, blood stage",> 10000
Cc1cc(N2CC[C@@](C#N)(C3CC3)C2=O)cc(NC(=O)Cc2ccccc2)n1,parasite growth,conditional knockdown control line,"120 h, together with: 50 nM anhydrotetracycline",64
O=C1C(=O)c2[nH]cc3c2C(=C1Cl)NCC3,"parasite growth, SYBR Green",W2,blood stage,7230
CCN(CC)CCCC(C)Nc1ccnc2cc(Cl)ccc12 (stereo not drawn),parasite growth,"NF54, artemisinin-sensitive",72 h,11.6 ± 1.97
COC1=CC2=NCCc3c[nH]c(c32)C1=O,"parasite growth, SYBR Green",DD2,blood stage,1180
N#Cc1ccc(-c2csc(C(=O)NOCCCCCC(=O)NO)n2)cc1,"asexual blood-stage growth, [3H]hypoxanthine uptake",3D7,72 h,250
COc1c(Br)cc(CCNC2=CC3=NCCc4c[nH]c(c43)C2=O)cc1Br,"parasite growth, SYBR Green",DD2,blood stage,34.4
"COc1cc(C)c(-c2ccc(O)c3c2C[C@@H](C)N[C@@H]3C)c2cccc(O)c12 (single isomer, unassigned)","asexual parasite proliferation, SYBR Green I fluorescence",HB3,,139 ± 8.8
CC(F)(F)CCCNC[C@@H](O)c1cc(Cl)cc2c1-c1ccc(Cl)cc1C2,,3D7,48 h,< 5
COc1cccc2c(-c3ccc(O)c4c3CC(C)(C)N=C4)ccc(OC(C)C)c12,"asexual parasite proliferation, SYBR Green I fluorescence","clinical isolate SB_05, Mozambique",,464.6 ± 4.5
O=C(CCCCCONC(=O)c1nc(-c2ccc(Br)cc2)cs1)NO,"asexual blood-stage growth, [3H]hypoxanthine uptake",3D7,72 h,130
Cc1ccc(S(=O)(=O)n2cc3c4c2C(=O)C(N)=CC4=NCC3)cc1,"parasite growth, SYBR Green",W2,blood stage,3410
COc1cc(O)c(-c2cc(-c3cc(-c4c(O)cc5c(c4OC)[C@H](C)N[C@H](C)C5)c4cc(C)cc(OC)c4c3O)c(O)c3c(OC)cc(C)cc23)c2c1[C@H](C)N[C@H](C)C2,"asexual parasite proliferation, SYBR Green I fluorescence",K1,,130 ± 19
CC1=C(Cn2cc(CN3CCC(F)(F)CC3)nn2)C(=O)c2ccccc2C1=O,"parasite growth, [3H]hypoxanthine incorporation",NF54,72 h,2840
"CCOC(=O)c1ccc2c(c1)C1CC(C)(N2)c2c(C)nc3ccc(C(=O)OCC)cc3c21 (single isomer, unassigned)","parasite growth, inhibitor, SYBR Green I",3D7,,17000
Cc1cc(N2CCC(CO)(C3CC3)C2=O)cc(C(=O)NCc2cc(F)cc(-c3cnn(C)c3)c2)n1 (stereo not drawn),parasite growth,conditional knockdown control line,"72 h, together with: 3 nM anhydrotetracycline",242
COc1cccc2c(-c3ccc(O)c4c3CCN=C4)ccc(OC(C)C)c12,"asexual parasite proliferation, SYBR Green I fluorescence",HB3,,409 ± 13
C[N+]1=C2C=C(NCCc3c[nH]c4ccccc34)C(=O)c3[nH]cc(c32)CC1,"parasite growth, SYBR Green",DD2,blood stage,24.2
CCNCC#CCNc1ccnc2cc(Cl)ccc12,"parasite growth, LDH",3D7,,22
Cc1cc(C(c2ccc(Cl)cc2)c2ccc(Cl)cc2)c2nccc(C)c2c1,"parasite growth, inhibitor, SYBR Green I",3D7,,4010
COc1ccc(-c2ccc(O)c3c(OC)cccc23)c2c1C=NC(C)(C)C2,"parasite growth, SYBR Green",NF54,blood stage,12400
O=C(CCCCCONC(=O)c1nc(-c2ccc(O)cc2)cs1)NO,"asexual blood-stage growth, [3H]hypoxanthine uptake",3D7,72 h,20
CC1=N[C@H](C)Cc2c(-c3ccc4ccccc4c3)ccc(O)c21,"asexual parasite proliferation, SYBR Green I fluorescence",7G8,,343 ± 54
COc1ccc2c(c1)C1CC(C)(N2)c2c(C)nc3ccc(OC)cc3c21 (stereo not drawn),"parasite growth, SYBR Green",,blood stage,2420
O=C1C(=O)c2[nH]cc3c2C(=C1I)NCC3,"parasite growth, SYBR Green",DD2,blood stage,12900
O=C(CCCCCONC(=O)c1nc(-c2ccncc2)cs1)NO,"asexual blood-stage growth, [3H]hypoxanthine uptake",3D7,72 h,340

# Repeated from above:
SMILES,assay,system,conditions,IC50 [nM]
O[C@@H](CNCCNC(c1ccccc1)c1ccccc1)c1cc(Cl)cc2c1-c1ccc(Cl)cc1C2,,3D7,48 h,10.9 ± 1.1
O=C(CCCCCONC(=O)c1nc(-c2ccc(O)cc2)cs1)NO,"asexual blood-stage growth, [3H]hypoxanthine uptake",3D7,72 h,20
COc1ccc(-c2ccc(O)c3c(OC)cccc23)c2c1C=NC(C)(C)C2,"parasite growth, SYBR Green",NF54,blood stage,12400
